Assay results from different studies.
Every numbered part comes from another study and shows a few of its results, in no order. Positions count from the first letter of the parent shown.

Sample 1 — technique: RNA Bind-n-Seq; molecule type: RNA; matrix: in vitro; concentration: 365 nM; reference: no-protein control; direction: higher = stronger binding; endpoint: RBNS enrichment (R)
Target: RNA binding protein fox-1 homolog 2, RRM domain, GST-SBP tag (RBFOX2, Homo sapiens, UniProt O43251-10, residues 100-194)
Notes: natural RNA segment, single round, ends assumed
Target sequence (chain): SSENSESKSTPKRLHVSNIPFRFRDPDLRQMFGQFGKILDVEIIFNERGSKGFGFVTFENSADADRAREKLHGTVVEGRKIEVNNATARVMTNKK
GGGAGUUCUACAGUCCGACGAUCAAGCUCCUGUCAGACUCUCAGAAGGGUCUGUGGGUGUUGUAUAUUAGGCAAACAGGGGAAAGCUUAGAGGUCCUUCUAUAUGUGUUAAUAAGCUGUUUCUAAGUGUUUAAUGGAAUUCUCGGGUGCCAA: 0.352
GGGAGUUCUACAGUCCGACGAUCCUUUUGUUUUGGGGGCAGAUUACUUUCAAAAGCAAAUACAAUUCACUUGAAUUUGACAAACUGAAGCAGACAAGUGUUCUGGGUCCUCUGAUAAUUUGGGGUGUUUGGCUUGGAAUUCUCGGGUGCCAA: 0.357
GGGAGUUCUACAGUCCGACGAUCAGACCUACAGUUUAUGUAUACAGUUGAUUUUGAUGUAUUUAUAAAAGCUUUUUUUUCUAGAUUUGACAUUUUUCUGUAUCAUUUUACUGUAUUUUUGCAUGGUUCCUUGUUGGAAUUCUCGGGUGCCAA: 0.737
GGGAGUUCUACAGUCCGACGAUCCUUCUUUCUUGUUUGGAGUUUUCUGUUGGAACCGCCGGCGUUGGCUCCGAAGACUUAGCGACGCCACUGGCGGCACCUUCUCCUGCGCCCAGUGAUGUUUCCACGGUGCCUGGAAUUCUCGGGUGCCAA: 0.279
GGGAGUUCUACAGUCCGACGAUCCUUUUCAGAAAAUUGUCCCUUUCCGGAAGGCCUCCUAGUCUUAUUCGGUGAUGACUCUUGUUAUCUUUUGUGUCCUGUAACCUCAUCGGGAUUGUCUUUUUUUUUUUUAAUGGAAUUCUCGGGUGCCAA: 0.636
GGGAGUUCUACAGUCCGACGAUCCGAGCGCUCGGUGUUCACACUGAACUGUGGGGUCGACGGGAGGGGUGCCUUUUACAUGUUCUAUUUUGUAUCCUAAUGACAGAAUGAAUAAACCUCUUUAUAUUUGCACAUGGAAUUCUCGGGUGCCAA: 0.247
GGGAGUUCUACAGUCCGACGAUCUGAACAUAUCAAAUAUAAAUUUUUUUAAAGAUCUAACUGUGAAAACAUACAUACCUGUACAUAUUUAGAUAUAAGCUGCUAUAUGUUGAAUGGACCCUUUUGCUUUUCUGUGGAAUUCUCGGGUGCCAA: 0.421
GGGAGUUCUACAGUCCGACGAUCCCUUCCAAGUUGUCUUGAAGAAUCCUUGCUGCUAACUCUGGAUCCUGCUUUUCCUAUAGUCAGAGGGCUCCAAGGUAGAACUCUCUAAGUCCCUCUCAAUGGCACUCUUUUGGAAUUCUCGGGUGCCAA: 0.944
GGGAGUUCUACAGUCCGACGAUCAAUAGGACUUCCUUUGAAAGCUGUAUAAUAGUGUUUCUCGGGCUUCUGUCUCUAUGAGAGAUAGCUUAUUACUCUGAUACUCUUUAAUCUUUUACAAAGGCAAGUUGCCAUGGAAUUCUCGGGUGCCAA: 0.466
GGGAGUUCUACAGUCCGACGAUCUGGAGGUGUGCUUUCUCACAACGGGGUGUGUUUUCCCAUGUGCAGGGUGAGGUUUUUUUUUGCCACCCUGGACACAUGUUGGCCCCCUCAAAGAAUUUCUGUGGGGAUUUUGGAAUUCUCGGGUGCCAA: 0.885
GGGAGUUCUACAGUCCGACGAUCACACAGCCUCAGUACCCAGUCUUUUCCCUAGUUCCUGAAACUUUCCUAGGACCUUAAGAGAAUAGUAGGAGGUCCUAUAGCAUUCCCAGUGUCACUAGAAUUUUGAAGACUGGAAUUCUCGGGUGCCAA: 0.755
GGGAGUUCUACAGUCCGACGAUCUGCCUUGCGCUAUCAUGACUGACUGGCCCAGUAUGAUUCUGUUGUCGCUGAUCUCCCGGAGGAGGAGGCUGUUGACCUGAAAACAGUGGCGUGGCUCCCCUGUGCCCAGAUGGAAUUCUCGGGUGCCAA: 0.363

Sample 2 — technique: DHFR PCA, deep sequencing; matrix: yeast; added: (+)-ABA 58 µM; reference: wild-type fitted maximum; direction: higher = stronger binding; endpoint: relative binding score
Target: ABI1, truncated, D143A, DHFR fusion (Arabidopsis thaliana)
Notes: methotrexate growth selection, single substitutions
Starting sequence: PYL1, truncated, DHFR fusion (Arabidopsis thaliana); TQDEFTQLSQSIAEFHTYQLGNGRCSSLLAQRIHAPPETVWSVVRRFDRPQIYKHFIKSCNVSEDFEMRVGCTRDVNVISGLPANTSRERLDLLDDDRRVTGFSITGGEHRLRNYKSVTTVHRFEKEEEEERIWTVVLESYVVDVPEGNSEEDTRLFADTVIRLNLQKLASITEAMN; partner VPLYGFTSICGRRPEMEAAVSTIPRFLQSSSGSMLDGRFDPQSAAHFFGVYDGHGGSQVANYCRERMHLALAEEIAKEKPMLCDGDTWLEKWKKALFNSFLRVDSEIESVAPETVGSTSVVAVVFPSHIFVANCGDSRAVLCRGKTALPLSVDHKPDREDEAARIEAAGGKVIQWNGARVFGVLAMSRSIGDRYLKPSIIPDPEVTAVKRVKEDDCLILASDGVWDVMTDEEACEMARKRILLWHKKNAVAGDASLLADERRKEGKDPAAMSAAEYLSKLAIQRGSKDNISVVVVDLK
S104I: 31.8%
E151I: 80.8%
I52D: 91%
N114F: 12.3%
V161C: 58.8%
Y141G: -0.583%
L20M: 87.9%
P50E: 1.71%
E139C: 80.1%
R32I: 85.1%
L91K: 12.8%
R113A: 89.1%
Q51V: 21.2%
I52C: 81.1%
E64K: 85.8%
R111K: 72.9%
P37I: 80.6%

Sample 3 — technique: RNA Bind-n-Seq; molecule type: RNA; matrix: in vitro; concentration: 100 nM; reference: input RNA pool; direction: higher = stronger binding; endpoint: bound/input enrichment
Target: RING finger protein unkempt homolog, zinc fingers 1-6, SBP tag (UNK, Homo sapiens, UniProt Q9C0B0, residues 30-357)
UniProt Q9C0B0, sequence (30-357, looked up): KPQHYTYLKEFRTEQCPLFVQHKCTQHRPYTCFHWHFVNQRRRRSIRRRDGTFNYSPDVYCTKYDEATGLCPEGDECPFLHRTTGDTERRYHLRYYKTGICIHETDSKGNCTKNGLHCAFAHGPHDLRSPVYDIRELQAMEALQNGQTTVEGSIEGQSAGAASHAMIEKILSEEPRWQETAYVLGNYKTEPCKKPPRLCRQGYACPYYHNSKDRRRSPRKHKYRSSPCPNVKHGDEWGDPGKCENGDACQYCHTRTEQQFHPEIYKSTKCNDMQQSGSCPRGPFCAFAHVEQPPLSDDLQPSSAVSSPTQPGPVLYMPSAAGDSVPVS
Notes: RNA with constant flanks, vertebrate orthologous sites, ends assumed
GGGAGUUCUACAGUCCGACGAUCCAACGUGUUCUAGCUUGUGAUCCUUCAAAGACAGACGGGUUAUGCGUUAAUUCUAGGUACUAGAAAUGUUCACUUCUCUCUUUCCACUGAUCAGAGAAACAGGCAUCAAAAACAGAAAUACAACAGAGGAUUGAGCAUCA: 0.569 ratio
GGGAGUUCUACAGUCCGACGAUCUCCUCAACCUGUUCUAGCUUGUGAUCCUUCAAAGUUGGGUCACACAUUAGUGCUAGAUACUAGAAAUUUUCACUUUUCCAUUGAUCAGAGAGACAGACAUUAAAAACAAAAAUAAAGGAACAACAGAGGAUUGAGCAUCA: 2.04 ratio
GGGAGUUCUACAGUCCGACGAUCUGAGGGAGAGAUUUCUGUGCUUUCUCAUAUUUAAUUUGCUGUUUUUAAGGUAUUCCAACCUAGAGUUUUUGAUGGAACUGAUAUAUUGACAGUUCUCACCUAAGUCCUUUUAUAAAGAAUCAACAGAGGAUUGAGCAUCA: 1.04 ratio
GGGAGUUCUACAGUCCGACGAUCUACAUCUGGUGAUAUUUGGCCUGGUCUUUCAGCGUAUGAUAAUAGUCCUAGAUCUCCGCACAGUCCUUCACCUAUUGCUACACCACCUAGUCAGAGUUCAUCAUGCUCUGAUGCUCCUAUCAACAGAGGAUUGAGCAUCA: 0.54 ratio
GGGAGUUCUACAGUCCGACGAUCGAGGAUUAGGUUCGAUCCUUUACGUGUUAAAAAAGAAAGCGUAAAAACAUUUUUAAAACAUAGAAGAAUUCAGCAAACCAUUUUUAAAGUAGAAGAGGGUUUUAGGUAGCAAAACGUAUUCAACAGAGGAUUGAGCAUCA: 1.2 ratio
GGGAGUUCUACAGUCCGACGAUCUUGUUUUGUACAGGACCUUCUCUGUACUAGUUUGUUGUAGUUAUAAAAGAGUUAGCAAACCGGCUUACAUUUGUAUUUAUUUUCUAUUCCAUACUUUCCCCUGCCUCAUAUUUUUUCUUCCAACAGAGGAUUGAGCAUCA: 1.1 ratio
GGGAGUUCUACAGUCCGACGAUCUGUGCUUAUACUCUUCUAGGGAAGAGAUGAAUUGGGGGAAACUGUCCCCUUUUUAUAGAUUUGUUUCUAAAUUAUGACCAAAAAAUAUUUUGCUAUUUCUUUCUUUAUAUAUGGACAUCUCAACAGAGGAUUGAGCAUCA: 0.583 ratio
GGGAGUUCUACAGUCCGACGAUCAAAGUUCCCCAUUGUCACUGAGAACCACCAAAUUUGACUUUCACAUUUGGUCUCAGAAUUUAGGUUCCUGCCCUGUUGUUUUUCUUUCUUCCUCUUUAAACAAACAAACAGUUUUCAGAACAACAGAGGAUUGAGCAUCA: 0.405 ratio
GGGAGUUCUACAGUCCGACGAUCAUCCUCAACUCGCUCUAGCCUGUGACCCUUCAAGACAGGGCCAGGAUUAGUGCGAGGUGCUAGGAAUUGCCGUCUCUCGCGCCAUUGAUCAGGGAGACAGACAUUAAAACAGGAAUGUCACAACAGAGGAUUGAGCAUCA: 0.209 ratio
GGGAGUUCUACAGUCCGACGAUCUGUGCUCAUGUAUAGUAAUUAGAGUGGGUUGUCCCUCUACUGCCAAGAAGAAAUCCCAGAUAGAUUCCUUUCAUGUCGGAUUAUACUGUUCUGAUUUUAUUUUCUAUUAUUUUUCUUAUGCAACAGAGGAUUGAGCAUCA: 0.85 ratio
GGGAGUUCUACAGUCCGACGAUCUCCCAGCACUCUGAUGAAAAGUGUGGACUGGUUGCUUGUAUUUUCCUUAUUCUUUUUAAUUAGUUUUAUUAUGUAUGCUACCAUUCGAACUGAGAGUAUUCGGUGGCUGAUUCCAGGACACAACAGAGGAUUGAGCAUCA: 4.26 ratio

Sample 4 — technique: protein binding microarray; molecule type: double-stranded DNA, one strand shown; matrix: in vitro; concentration: not given; reference: not given; direction: higher = stronger binding; endpoint: E-score
Target: Histone acetyltransferase KAT6A, winged helix 1, GST fusion (KAT6A, Homo sapiens, UniProt Q92794, residues 1-85)
Notes: 8-mer, flanks averaged, mean of 2 arrays, mostly near background
Target sequence (chain): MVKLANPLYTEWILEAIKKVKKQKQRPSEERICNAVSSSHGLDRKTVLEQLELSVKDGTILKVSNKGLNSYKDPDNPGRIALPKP
AATCTGGC: -0.113
CTAGTGGA: -0.198
AGGAGAAT: -0.223
CAGCTATG: -0.226
CTACCACA: -0.235
AAGCCGAT: 0.153
AGCGTCGG: 0.442
GCGAGTAA: 0.149
CGTCAAAA: -0.00302
ATCCTGTC: -0.1
CCCCAATC: -0.174
CAAGCTGC: -0.0208
ACATGTCC: 0.0203
ATGACCGA: 0.0283
TACGGGAA: 0.387
GGCTGTAA: -0.0917
GACGAATC: -0.188
GGAAGTAA: -0.0766
GATCGCCC: 0.12
GGGTGTCA: -0.0118
AACACATA: -0.221
GCACAAAC: -0.185

Sample 5 — technique: universal PBM; molecule type: double-stranded DNA, one strand shown; matrix: in vitro; concentration: not given; direction: higher = stronger binding; endpoint: E-score
Target: Sal-like protein 4, full length isoform B (SALL4, Homo sapiens, UniProt Q9UJQ4-2, residues 1-616)
Notes: 8-mer, flanks averaged, mean of replicates
Residues (chain): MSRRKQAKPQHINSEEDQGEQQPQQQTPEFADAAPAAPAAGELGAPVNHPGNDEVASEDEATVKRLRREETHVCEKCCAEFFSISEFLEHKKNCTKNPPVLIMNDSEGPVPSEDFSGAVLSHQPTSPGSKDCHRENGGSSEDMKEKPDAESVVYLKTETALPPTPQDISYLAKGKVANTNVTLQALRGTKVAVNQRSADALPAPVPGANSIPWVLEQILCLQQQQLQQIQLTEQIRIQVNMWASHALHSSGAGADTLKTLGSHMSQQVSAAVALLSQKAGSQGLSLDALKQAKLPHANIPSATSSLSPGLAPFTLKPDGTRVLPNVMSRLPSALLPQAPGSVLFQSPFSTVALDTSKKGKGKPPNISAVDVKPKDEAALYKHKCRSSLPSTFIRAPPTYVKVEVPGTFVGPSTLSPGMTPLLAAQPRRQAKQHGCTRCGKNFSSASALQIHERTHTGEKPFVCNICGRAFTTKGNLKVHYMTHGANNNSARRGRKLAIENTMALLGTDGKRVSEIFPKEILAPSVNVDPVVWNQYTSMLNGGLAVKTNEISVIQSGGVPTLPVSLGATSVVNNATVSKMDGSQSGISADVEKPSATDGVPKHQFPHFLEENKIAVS
AATGTCGA: 0.145
ACAGGTCC: -0.174
AAAAACGG: -0.0327
ATTGACTG: 0.035
GAAGGTAC: -0.0899
AGTACGAA: 0.123
GTATAGAC: 0.227
ACGCGTTG: 0.00395
AGCTGTAC: -0.141
CACACTCG: -0.0679
CACGGCTA: -0.0574
ACTGCGTA: -0.237
AAACAAGT: 0.164
CACCATAC: -0.0553
AACCGTAT: -0.0465
GTGTATTA: 0.326
CTCATAAA: 0.263
GCCATTCA: -0.00469
GCTTCCCC: -0.335
AGTTGCAG: -0.0878
